Published values from different studies.
Numbered parts are unrelated; each lists some results of a single study.

Sample 1
Target: RNA binding protein fox-1 homolog 2, RRM domain, GST-SBP tag (RBFOX2, Homo sapiens, UniProt O43251-10, residues 100-194)
Method: RNA Bind-n-Seq
Molecule type: RNA
Medium: in vitro
Tested at: 365 nM
Setting: natural RNA segment, single round, ends assumed
Baseline: no-protein control
Direction: higher = stronger binding
All sequences stand within: GGGAGUUCUACAGUCCGACGAUC … UGGAAUUCUCGGGUGCCAA
Oligonucleotide	RBNS enrichment (R)
UUAUGGUGUCAGUGAGUAGUUUGUAUUAGAAUAAUUUUCCUAUUUCCUACCUUGCUUUCUAGAAAGGCUUUUGCUCCAUACUUCCCUUAAUCUCAGAAUGGAUGGAAAAG	0.363
GUCAUUUAGUUAUGAACGAAAUAAGAAAAGUGAGAACUUCAAAAGCUGUGGUCUUAAAUACUAGACCAGGUUUAGUAGCUCUGUUUUGUCAGUUUUCUAUUUGCCCUCUU	0.633
UUGCGUAGAUGUUGCCUGGUGCAAAGUGCCCCAAACAGCAAUAGAAAGGCAUAUGUAUAACCAAACUCCAAGUGAUAACCAGACCCAUCUCUCCUCCACCUUGACAAAAG	0.471
CUGUCAUUUAUUAUCCUAAAGAAGAAAACAUAAUAACCAUAAUGGGCUCUCAACUCAACUCCCUUUUUUAUUUAGUUCUAUUUGGAGGAGUUAUGUAUUUUUUACAUUAG	0.639
AGACUGUCCUGUCCAGGAAAUCUGGGGGAAGAGGAGUUGCAAUCAGGCCCCAACCCUGUAAUAGGCAAGGAGGAGGAAUCAGGUGAGGCCCUGCCCCCUUUCCAUUCGUG	0.618

Sample 2
Target: Histone acetyltransferase KAT6A, both winged helices, GST fusion (KAT6A, Homo sapiens, UniProt Q92794, residues 1-181)
Method: protein binding microarray
Molecule type: double-stranded DNA, one strand shown
Medium: in vitro
Tested at: not given
Setting: 8-mer, flanks averaged, mean of 2 arrays, mostly near background
Baseline: not given
Direction: higher = stronger binding
Construct (chain): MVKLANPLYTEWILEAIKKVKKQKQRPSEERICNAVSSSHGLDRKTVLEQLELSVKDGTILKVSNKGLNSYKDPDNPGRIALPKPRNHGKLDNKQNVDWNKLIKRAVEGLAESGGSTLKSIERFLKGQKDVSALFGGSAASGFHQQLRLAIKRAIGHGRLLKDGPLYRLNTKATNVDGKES
Oligonucleotide	E-score
CTGTGAAA	-0.0453
AGTCACAG	-0.162
GAGTTTGC	0.048
AGCCGTTA	0.248
GATTAAAA	-0.0584
ATCTACCG	0.165
GACTCACA	-0.196
TCTAGAAA	-0.0145

Sample 3
Target: Interferon regulatory factor 5, full length, phosphomimetic (IRF5, Homo sapiens, UniProt Q13568-2, residues 1-514, S451D/S453D/S456D/S462D)
Method: protein-binding microarray
Molecule type: double-stranded DNA, one strand shown
Medium: in vitro
Tested at: 940 nM top
Setting: 60-bp whole probe
With: salmon DNA 0.4 mg/ml
Baseline: random background probes
Direction: higher = stronger binding
All sequences stand within: GCCTAGCAC … GTCTTGATTCGCTTGACGCTGCTG
Oligonucleotide	fitted relative affinity [z-score]
GCCGGTCTCCTACTGCTGACGTGCTAG	-0.149
TCATCTCCCATTCTGAAACTGTGCTAG	0.989
TCAGTTTCTCCTTTGTAACTGTGCTAG	4.99
TTAGGTATAGACACTGGGTTAGTGCTA	-0.15
GACGATTGCGGGTATCGAGACGTGCTA	0.872
GACGGACTGGGGTATAGGGACGTGCTA	-0.068
AATTCTTTGCTCATTTTTCAGGTGCTA	0.732
TTAGATCTCAGTTTCTATTAGTGCTAG	2.71
GACGGGCTGGGTCTCGGGACGTGCTAG	-0.207
GACGGTATCGGGACTGGAGACGTGCTA	2.59

Further values, each from its own experiment
Substance	target	test	test system	conditions	how to read	quantity	value
PhoQ, residues 284 288 289 292 302 303 TAVSDG	PhoP, residues 12 14 15 18 19 LHHVQ (Escherichia coli, UniProt P23836)	Sort-seq, measured: YFP reporter	E. coli	PhoQ-PhoP variant library, with: 10 µM Mg2+	baseline: high Mg2+ state, higher = stronger signaling	fold induction	0.942
